# Measurements collected from several papers.
# ± gives the spread as reported.
Structure (SMILES),cell line,test,conditions,IC50
C[C@H]1COc2c(N3CCN(C)CC3)c(F)cc3c(=O)c(C(=O)N[C@@H](CCCNC(=N)N)C(=O)N[C@@H](Cc4ccc(-c5ccccc5)cc4)C(=O)N[C@@H](CCCNC(=N)N)C(=O)N[C@@H](Cc4ccc(-c5ccccc5)cc4)C(=O)N[C@@H](CCCNC(=N)N)C(N)=O)cn1c23,MDCK,"cell growth or viability, MTT",,88.3 µM
CNC(=O)c1cc(Oc2ccc(NC(=O)c3cc(-c4ccc(COC(=O)CCC(=O)OC5OC6OC7(C)CCC8C(C)CCC(C5C)C68OO7)cc4)ccn3)cc2)ccn1 (stereo not drawn),Huh-7,"cell growth or viability, MTT",72 h,12.8 µM
C=C(C(=O)O)[C@@H]1CC[C@@]2(C)CCC(=O)C(C)=C2[C@H]1O,human Neutrophil,"superoxide release, inhibitor, absorbance",,> 10 µM
CCc1ccc(C(c2c(C)nn(-c3ccccc3)c2O)c2c(C)nn(-c3ccccc3)c2O)cc1,Ishikawa,"cell growth or viability, MTT",48 h,> 40 µM
CC[C@H](C)[C@H](NC(=O)CNC(=O)[C@H](C)NC(=O)[C@@H]1CCCN1C(=O)CNC(=O)[C@H](C)NC(=O)[C@H](CCC(=O)O)NC(=O)[C@H](C)NC(=O)[C@H](CC(=O)O)NC(=O)[C@H](C)NC(=O)[C@H](CCC(=O)O)NC(=O)[C@H](C)NC(=O)[C@H](CCC(=O)O)NC(=O)[C@@H]1CCCN1C(=O)[C@@H](N)CCC(=O)O)C(=O)NCC(=O)N[C@@H](C)C(=O)N[C@H](C(=O)N[C@@H](CC(C)C)C(=O)N[C@@H](CCCCN)C(=O)N[C@H](C(=O)N[C@@H](CC(C)C)C(=O)N[C@H](C(=O)N[C@H](C(=O)NCC(=O)N[C@@H](CC(C)C)C(=O)N1CCC[C@H]1C(=O)N[C@@H](C)C(=O)N[C@@H](CC(C)C)C(=O)N[C@H](C(=O)N[C@@H](CO)C(=O)N[C@@H](Cc1c[nH]c2ccccc12)C(=O)N[C@H](C(=O)N[C@@H](CCCCN)C(=O)N[C@@H](CCCNC(=N)N)C(=O)N[C@@H](CCCCN)C(=O)N[C@@H](CCCNC(=N)N)C(=O)N[C@@H](CCC(N)=O)C(=O)N[C@@H](CCC(N)=O)C(N)=O)[C@@H](C)CC)[C@@H](C)CC)[C@@H](C)O)[C@@H](C)O)C(C)C)C(C)C,MCF7 FAP-transfected,"cell viability, MTT",72 h,5.2 ± 0.4 µM
CCCC[C@@H]1NC(=O)COC[C@H]2CCCN2C(=O)[C@H](CCCCN)NC(=O)[C@H](CC(C)C)NC(=O)[C@H](CCCCN)NC(=O)[C@H](CC(C)C)NC(=O)[C@H](CCCCN)NC(=O)CN(S(C)(=O)=O)CCNC(=O)[C@H](Cc2c[nH]c3ccccc23)NC(=O)[C@H](C)NC(=O)[C@H](C(C)C)NC(=O)[C@H](C(C)C)NC1=O,NCI-H929,"viability, TO-PRO-3 staining, flow cytometry",,14.3 µM
O=C(O)c1ccc([PH]([Au][Cl])(c2ccccc2)c2ccccc2)cc1,MDA-MB-157,"cell growth or viability, resazurin",72 h,6.7 µM
Cc1nn(-c2ccccc2)c(O)c1C(c1ccc(N(C)C)cc1)c1c(C)nn(-c2ccccc2)c1O,Ishikawa,"cell growth or viability, MTT",48 h,> 40 µM
COc1cccc2c1C(=O)c1c(O)c3c(c(O)c1C2=O)CC(O)(C(=O)CO)CC3OC1CC(NC(=O)OC2C=CCCC(C)(C(=O)NCC(=O)O)CC2)C(O)C(C)O1 (stereo not drawn),MC-38,"cell growth or viability, MTT",24 h,1.9 µM
CNC(=O)c1cc(Oc2ccc(NC(=O)c3ccc(-c4cccc(COC(=O)CCC(=O)OC5OC6OC7(C)CCC8C(C)CCC(C5C)C68OO7)c4)cn3)cc2)ccn1 (stereo not drawn),Huh-7,"cell growth or viability, MTT",72 h,2.25 µM
COc1ccc(C(c2c(C)nn(-c3ccccc3)c2O)c2c(C)nn(-c3ccccc3)c2O)cc1,Ishikawa,"cell growth or viability, MTT",48 h,> 40 µM
O=C(Cc1ccc2ccccc2c1)N[C@H](Cc1ccccc1)C(=O)N[C@H](Cc1ccccc1)C(=O)N[C@H](Cc1ccc(O)cc1)C(=O)N[C@H](Cc1ccc(OP(=O)(O)O)cc1)C(=O)O,SAOS-2,"cell growth or viability, MTT",,170 µg/mL
CC(C)C[C@@H](NC(=O)[C@@H](CC(C)C)NC(=O)[C@@H](CO)NC(=O)[C@@H](Cc1c[nH]cn1)NC(=O)[C@@H](CC(C)C)NC(=O)[C@@H](CO)NC(=O)[C@@H](CCCNC(=N)N)NC(=O)[C@@H](CO)NC(=O)[C@H](N)Cc1ccccc1)C(=O)NCC(=O)NCCCCCC(=O)N[C@H](CCCNC(=N)N)C(=O)N[C@H](CCCNC(=N)N)C(=O)N[C@H](CCCNC(=N)N)C(=O)N[C@H](CCCNC(=N)N)C(=O)N[C@H](CCCNC(=N)N)C(=O)N[C@H](CCCNC(=N)N)C(=O)N[C@H](CCCNC(=N)N)C(=O)N[C@H](CCCNC(=N)N)C(=O)NCC(=O)N[C@@H](CS)C(=O)O,KG-1a,"cell viability, MTT","1 h exposure then 23 h, 37 °C, complete medium with serum",12 µM
Cc1cc(Nc2nc(C[C@@]3(C(=O)O)CCN(Cc4cccc(Cl)c4F)[C@H](C)C3)cc(C)c2F)[nH]n1,Calu-6,"cell growth or viability, ATP luminescence",5 days,0.0649 µM
O=C1CC2(C1)C(=O)[O][Pt]1([Cl])([O]C(=O)C(F)(F)F)([NH][C@@H]3CCCC[C@H]3[NH]1)[O]C2=O,BGC803,"cell growth or viability, MTT",,15 µM
C[C@H]1C(OCCCCCCCC[P+](c2ccccc2)(c2ccccc2)c2ccccc2)O[C@@H]2O[C@@]3(C)CCC4[C@H](C)CCC1[C@]42OO3 (stereo partly drawn),OVCAR-3,"cell growth or viability, MTT",72 h,0.0998 µM
CC1(CCCOC2C(O)OC(CO)C(O)C2O)C(=O)[O][Pt][O]C1=O.NC1CCCCC1N (mixture of isomers),DU145 GLUT1 shRNA knockdown,"cytotoxicity, MTT",7.5 h then 64 h recovery,26 µM
O=C(O)c1ccc([S][Au][PH](c2ccccc2)(c2ccccc2)[c-]2cccc2)cc1.[Fe+2].c1cc[cH-]c1,CAKI-1,"cell growth or viability, XTT",72 h,3.6 µM
CC[C@@H](C)[C@@H](NC(=O)[C@@H](CCCCN)NC(=O)[C@H](NC(=O)[C@@H](CCC(N)=O)NC(=O)[C@H](N)CCCNC(=N)N)[C@H](C)CC)C(=O)N[C@H](Cc1c[nH]c2ccccc12)C(=O)N[C@H](Cc1ccccc1)C(=O)N[C@H](CCC(N)=O)C(=O)N[C@H](CC(N)=O)C(=O)N[C@H](CCCNC(=N)N)C(=O)N[C@H](CCCNC(=N)N)C(=O)N[C@H](CCSC)C(=O)N[C@H](CCCCN)C(=O)N[C@H](Cc1c[nH]c2ccccc12)C(=O)N[C@H](CCCCN)C(=O)N[C@H](CCCCN)C(=O)N[C@H](CO)C(=O)N[C@H](Cc1c[nH]c2ccccc12)C(=O)N[C@@H](C(=O)N[C@H](Cc1c[nH]c2ccccc12)C(=O)N[C@H](CCC(=O)O)C(=O)N[C@H](CCCCN)C(=O)N[C@H](CCCCN)C(=O)N[C@H](CC(C)C)C(=O)N[C@H](CCC(=O)O)C(=O)N[C@@H](C(=O)N[C@H](C)C(=O)N[C@@H](C(=O)N[C@H](CC(N)=O)C(=O)N[C@H](CC(C)C)C(=O)N[C@H](C)C(=O)N[C@H](Cc1c[nH]c2ccccc12)C(=O)N[C@@H](C(=O)N[C@H](C)C(=O)NCC(=O)N[C@H](CC(N)=O)C(=O)N[C@H](CO)C(=O)N[C@H](CC(N)=O)C(=O)N[C@H](CCCCN)C(=O)N[C@H](Cc1c[nH]c2ccccc12)C(=O)N[C@@H](C(=O)N[C@H](Cc1c[nH]c2ccccc12)C(=O)N[C@H](CCCCN)C(=O)O)[C@H](C)O)[C@H](C)O)C(C)C)[C@H](C)O)[C@H](C)O,CLL patient PBMCs,"cell death, PI staining flow cytometry","90 min, room temperature, serum-free medium",0.7 µM
[Cl][Ag].[Se]=c1n(C2CCCCC2)ccn1C1CCCCC1,PSN1,"cell growth or viability, MTT",72 h,1.4 µM
CC(C)OC(=O)C(n1cccn1)n1cccn1.F[P-](F)(F)(F)(F)F.[Cu+].c1ccc(P(c2ccccc2)c2ccccc2)cc1,U-1285,"cell viability, MTT",,6.8 ± 0.8 µM
Cc1cc(C)c(N2CCN(c3c(C)cc(C)cc3C)C2=[Se])c(C)c1.[Cl][Ag],PSN1,"cell growth or viability, MTT",72 h,1.2 µM
N=C(N)NCCC[C@@H](N)C(=O)N[C@@H](Cc1c[nH]c2ccccc12)C(=O)N[C@@H](CCC(N)=O)C(=O)N[C@@H](Cc1c[nH]c2ccccc12)C(=O)N[C@@H](CCCN)C(=O)N[C@@H](Cc1c[nH]c2ccccc12)C(=O)N[C@@H](CCC(N)=O)C(=O)N[C@@H](Cc1c[nH]c2ccccc12)C(=O)N[C@@H](CCCNC(=N)N)C(N)=O,Caco-2,"cell growth or viability, MTT",,109 µM
CCC(C)C1OC(=O)C(NC(=O)c2cccc(NC=O)c2O)C(C)OC(=O)C(C(C)CC)OC(=O)C(C)(C)C(O)C(Cc2ccccc2)OC1=O (stereo not drawn),SGC-7901/DDP cisplatin-resistant,"cell viability, CCK-8",72 h,0.001 ± 0.0001 µM
CC(C)c1cccc(C(C)C)c1-n1c[n+](-c2c(C(C)C)cccc2C(C)C)c2c1-c1cccc3cccc-2c13.[Cl][Pd-]([Cl])[CH2]C=Cc1ccccc1,PSN1,"cell growth or viability, MTT",72 h,7.2 µM
C[C@H]1C(OCCCCC[P+](c2ccccc2)(c2ccccc2)c2ccccc2)O[C@@H]2O[C@@]3(C)CCC4[C@H](C)CCC1[C@]42OO3 (stereo partly drawn),OVCAR-3,"cell growth or viability, MTT",72 h,0.177 µM
CC[C@H](C)[C@H](NC(=O)CN)C(=O)NCC(=O)N[C@@H](C)C(=O)N[C@H](C(=O)N[C@@H](CC(C)C)C(=O)N[C@@H](CCCCN)C(=O)N[C@H](C(=O)N[C@@H](CC(C)C)C(=O)N[C@H](C(=O)N[C@H](C(=O)NCC(=O)N[C@@H](CC(C)C)C(=O)N1CCC[C@H]1C(=O)N[C@@H](C)C(=O)N[C@@H](CC(C)C)C(=O)N[C@H](C(=O)N[C@@H](CO)C(=O)N[C@@H](Cc1c[nH]c2ccccc12)C(=O)N[C@H](C(=O)N[C@@H](CCCCN)C(=O)N[C@@H](CCCNC(=N)N)C(=O)N[C@@H](CCCCN)C(=O)N[C@@H](CCCNC(=N)N)C(=O)N[C@@H](CCC(N)=O)C(=O)N[C@@H](CCC(N)=O)C(N)=O)[C@@H](C)CC)[C@@H](C)CC)[C@@H](C)O)[C@@H](C)O)C(C)C)C(C)C,MCF7 FAP-transfected,"cell viability, MTT",72 h,1.3 ± 0.2 µM
CNC(=O)c1cc(Oc2ccc(NC(=O)c3cc(-c4cccc(COC(=O)CCC(=O)OC5OC6OC7(C)CCC8C(C)CCC(C5C)C68OO7)c4)ccn3)cc2)ccn1 (stereo not drawn),Hep3B,"cell growth or viability, MTT",72 h,8.73 µM
Cc1cc(C)c(-n2ccn(-c3c(C)cc(C)cc3C)c2=[Se])c(C)c1.[Cl][Ag],A-375,"cell growth or viability, MTT",72 h,0.7 µM
Cc1cc(C)c(S(=O)(=O)N2CC2C(N)=O)c(C)c1 (stereo not drawn),Caco-2,"cell growth or viability, MTT",48 h,236 µM

# Some of these lines once more:
Structure (SMILES),cell line,test,conditions,IC50
O=C(O)c1ccc([S][Au][PH](c2ccccc2)(c2ccccc2)[c-]2cccc2)cc1.[Fe+2].c1cc[cH-]c1,CAKI-1,"cell growth or viability, XTT",72 h,3.6 µM
CCc1ccc(C(c2c(C)nn(-c3ccccc3)c2O)c2c(C)nn(-c3ccccc3)c2O)cc1,Ishikawa,"cell growth or viability, MTT",48 h,> 40 µM
Cc1nn(-c2ccccc2)c(O)c1C(c1ccc(N(C)C)cc1)c1c(C)nn(-c2ccccc2)c1O,Ishikawa,"cell growth or viability, MTT",48 h,> 40 µM
CC(C)c1cccc(C(C)C)c1-n1c[n+](-c2c(C(C)C)cccc2C(C)C)c2c1-c1cccc3cccc-2c13.[Cl][Pd-]([Cl])[CH2]C=Cc1ccccc1,PSN1,"cell growth or viability, MTT",72 h,7.2 µM
